{"data": "Assay results from different studies", "note": "Parts stem from different laboratories: compare values within a part only. Positions count from the first letter of the parent shown."}
{"data": "Study 1", "target": "RING finger protein unkempt homolog, zinc fingers 1-6, GST-SBP tag (UNK, Homo sapiens, UniProt Q9C0B0, residues 30-357)", "method": "RNA Bind-n-Seq", "molecule type": "RNA", "sample": "in vitro", "concentration": "not given", "notes": "RNA with constant flanks, human-mouse chimeric sites, ends assumed", "reference": "input RNA pool", "direction": "higher = stronger binding", "shared flanks, not repeated": "GGGAGUUCUACAGUCCGACGAUC … CAACAGAGGAUUGAGCAUCA", "Residues (chain)": "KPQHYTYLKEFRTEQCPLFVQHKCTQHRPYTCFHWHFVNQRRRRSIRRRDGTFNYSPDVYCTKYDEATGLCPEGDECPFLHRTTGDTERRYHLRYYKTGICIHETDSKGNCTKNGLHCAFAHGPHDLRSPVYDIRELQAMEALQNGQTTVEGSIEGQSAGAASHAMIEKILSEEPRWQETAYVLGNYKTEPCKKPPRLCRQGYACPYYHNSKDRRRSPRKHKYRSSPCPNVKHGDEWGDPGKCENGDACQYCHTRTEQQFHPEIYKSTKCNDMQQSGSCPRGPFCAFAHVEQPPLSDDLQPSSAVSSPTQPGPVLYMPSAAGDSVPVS"}
{"Sequence": "UCUUUAAAAAAAAAAUUACAGGAAAAUACAGUGCUUUCCCUCCCAUAGAUCCACGUUCACACUAGAAGAGCAAAGGCUUUGCACGGAGCUCAAACAUCUGAUGAAGAAAGAUUUCUGAGA", "bound/input enrichment": "1.66 ratio"}
{"Sequence": "UGGCGCCUCCCAUUUUUACUCGUGUUUUUAAGUGUAUAAGAUGUAUAUACAUGUAUUUACAAUUGAGCUUUUGUUACAUAAUGCUGAAAUGCUACUGGAGAUUAUGAAAAAUGUUUCAAU", "bound/input enrichment": "0.133 ratio"}
{"Sequence": "UUUCUACUGCAGCAAACGAUGCUAAGAAUUAAGGAUCCUAAGAAGUCCCUGGAUUUUUAUACGAGGGUUCUUGGACUGACCCUCCUGCAGAAGCUUGAUUUUCCCAUUAUGAAGUUUUCG", "bound/input enrichment": "0.293 ratio"}
{"Sequence": "CGCAGAAGGUUAAAGGGUGAGAGUGGGAUGGAGGAUUGUGUCAUGGCUCUGGAGACACUGUUCAGUGUCCUGCUUUCUCUGUGCAGACUGAUGGCCCCUUACACGCCCUUUCUGACUGAG", "bound/input enrichment": "0.0881 ratio"}
{"Sequence": "AGCACAACCCCAGCAAAGCUAAGAAAUCCUUGUACAAGUGAACAGAACUGCACCAGCCCAUUUAGCUACAAAAAUGUGCUUAGUCUUACUGACAGAGGAGAGUUUUUCAAUGAACUUGUU", "bound/input enrichment": "1.06 ratio"}
{"Sequence": "GCUCCUCCCCGCUCUGCAGCCUGGGGACACUGGGCUGCAUUUUUUUUCCAGCUUUCUUUUAAAACUCUCAGUGUAACUGUAUCCCGUUUUUUUCUUUUUUUUUUAAAUAGUGUAUUUUUU", "bound/input enrichment": "31.9 ratio"}
{"Sequence": "CUAGCAGUCCAGCAGCUAGAAGGAGCCUUGAGACAAACACUCCACACACAGGGAAGGCAAUAGCUUUGUACAUUGGUUUACAUUUUUUCCCCCUGUGGAUUUUUCUAGAGGUCAUAGUGC", "bound/input enrichment": "1.12 ratio"}
{"Sequence": "GCCACCAGAUCCCAGAAACAUGACCCUUGCUGCCUACAAAGAGAAGAUGAAGGAGCUCCCGCUGGUGUCCUUGUUCUGCUCUUGCUUCCUGGCCGAUCCCCUGAAUAAAUCAUCCUACAA", "bound/input enrichment": "0.279 ratio"}
{"data": "Study 2", "target": "Histone acetyltransferase KAT6A, both winged helices, GST fusion (KAT6A, Homo sapiens, UniProt Q92794, residues 1-181)", "method": "protein binding microarray", "molecule type": "double-stranded DNA, one strand shown", "sample": "in vitro", "concentration": "not given", "notes": "8-mer, flanks averaged, mean of 2 arrays, mostly near background", "reference": "not given", "direction": "higher = stronger binding", "Residues (chain)": "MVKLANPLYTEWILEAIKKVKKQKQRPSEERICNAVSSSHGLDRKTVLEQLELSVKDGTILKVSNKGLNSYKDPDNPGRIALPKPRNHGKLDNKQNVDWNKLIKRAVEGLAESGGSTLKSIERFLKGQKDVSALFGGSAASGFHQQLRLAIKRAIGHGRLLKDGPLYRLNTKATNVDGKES"}
{"Sequence": "CTGAACTC", "E-score": -0.304}
{"Sequence": "GAACACCA", "E-score": -0.0966}
{"Sequence": "AGACCATC", "E-score": -0.138}
{"Sequence": "CTGAAAAA", "E-score": -0.156}
{"Sequence": "ACCCAAGT", "E-score": -0.234}
{"Sequence": "TATTAGAA", "E-score": -0.0973}
{"Sequence": "TCTAAGCA", "E-score": -0.0372}
{"Sequence": "AGGATGCA", "E-score": -0.122}
{"Sequence": "CAATTCTA", "E-score": -0.218}
{"Sequence": "CGCATCAA", "E-score": 0.18}
{"Sequence": "GCACCAGC", "E-score": -0.0305}
{"Sequence": "CCCACAAC", "E-score": -0.0143}
{"Sequence": "CGCGCCGA", "E-score": 0.319}
{"Sequence": "CGGCCAGA", "E-score": 0.162}
{"Sequence": "GGCCTAGA", "E-score": -0.0771}
{"Sequence": "ATAGACAA", "E-score": -0.0775}
{"Sequence": "ACTGCGGG", "E-score": 0.117}
{"Sequence": "CGCTATCC", "E-score": 0.144}
{"data": "Study 3", "target": "ABI1, truncated, D143A, DHFR fusion (Arabidopsis thaliana)", "method": "DHFR PCA, deep sequencing", "sample": "yeast", "notes": "methotrexate growth selection, single substitutions", "together with": "(+)-ABA 2500 µM", "reference": "wild-type fitted maximum", "direction": "higher = stronger binding", "starting sequence": "PYL1, truncated, DHFR fusion (Arabidopsis thaliana); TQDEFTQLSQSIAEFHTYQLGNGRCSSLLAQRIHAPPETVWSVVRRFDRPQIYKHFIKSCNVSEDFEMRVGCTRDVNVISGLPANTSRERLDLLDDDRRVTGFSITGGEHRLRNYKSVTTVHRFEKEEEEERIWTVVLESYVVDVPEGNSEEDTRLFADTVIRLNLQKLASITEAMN; partner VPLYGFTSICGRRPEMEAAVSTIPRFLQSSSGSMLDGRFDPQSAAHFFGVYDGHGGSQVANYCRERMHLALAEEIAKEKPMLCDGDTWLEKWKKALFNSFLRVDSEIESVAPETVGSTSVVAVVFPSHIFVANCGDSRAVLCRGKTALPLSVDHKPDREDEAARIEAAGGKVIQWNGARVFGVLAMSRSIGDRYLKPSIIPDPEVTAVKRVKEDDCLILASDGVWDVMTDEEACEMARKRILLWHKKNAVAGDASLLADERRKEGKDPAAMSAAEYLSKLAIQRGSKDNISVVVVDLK"}
{"Substitution": "S140V", "relative binding score": "1.89%"}
{"Substitution": "L138E", "relative binding score": "35.5%"}
{"Substitution": "E38P", "relative binding score": "88.8%"}
{"Substitution": "M176G", "relative binding score": "103%"}
{"Substitution": "L82D", "relative binding score": "0.609%"}
{"Substitution": "A158Q", "relative binding score": "37.4%"}
{"Substitution": "E174Y", "relative binding score": "89.4%"}
{"data": "Study 4", "target": "CREB3, bZIP domain (human)", "method": "DHFR protein complementation", "sample": "yeast", "notes": "single substitutions, most at no-binding floor", "reference": "wild-type JUN-FOS pair", "direction": "higher = stronger binding", "starting sequence": "JUN, bZIP domain (human); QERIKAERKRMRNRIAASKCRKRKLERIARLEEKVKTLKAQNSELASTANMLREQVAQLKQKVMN; partner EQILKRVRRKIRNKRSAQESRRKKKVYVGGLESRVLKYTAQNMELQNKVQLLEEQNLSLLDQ"}
{"Substitution": "K39R", "binding fitness [natural log]": -1.27}
{"Substitution": "E54M", "binding fitness [natural log]": -1.59}
{"Substitution": "N42L", "binding fitness [natural log]": -1.5}
{"Substitution": "R53L", "binding fitness [natural log]": -1.58}
{"Substitution": "L31T", "binding fitness [natural log]": -1.38}
{"Substitution": "L59C", "binding fitness [natural log]": -1.5}
{"Substitution": "Q55R", "binding fitness [natural log]": -1.48}
{"Substitution": "T37Q", "binding fitness [natural log]": -1.36}
{"Substitution": "E33N", "binding fitness [natural log]": -1.34}
{"data": "Further values, each from its own experiment"}
{"Substance": "PhoQ, residues 284 288 289 292 302 303 WVSSAF", "target": "PhoP, residues 12 14 15 18 19 SFCSL (Escherichia coli, UniProt P23836)", "test": "Sort-seq, refers to: YFP reporter", "test system": "E. coli", "setting": "PhoQ-PhoP variant library, together with: 10 µM Mg2+", "scale": "reference: high Mg2+ state, higher = stronger signaling", "endpoint": "fold induction", "result": 14.3}
{"note": "Repeated from above (study 2):"}
{"Sequence": "AGACCATC", "E-score": -0.138}
{"Sequence": "CTGAAAAA", "E-score": -0.156}
{"Sequence": "ACCCAAGT", "E-score": -0.234}
{"Sequence": "TATTAGAA", "E-score": -0.0973}
{"Sequence": "TCTAAGCA", "E-score": -0.0372}
{"Sequence": "AGGATGCA", "E-score": -0.122}
{"Sequence": "CAATTCTA", "E-score": -0.218}
